# Published values gathered from unrelated publications.
# Protocols differ between the studies behind these lines.
SMILES,organism,assay,system,conditions,endpoint,result
COc1cc([C@H]2OC[C@H]3[C@@H]2CO[C@@H]3c2cc(OC)c(O)c(OC)c2)cc(OC)c1O,Helicobacter pylori,"microbial growth, broth dilution",,0.24 µg/mL,inhibition,52%
Cc1cc(C)c(C(N)=O)c(SCC(=O)c2ccc(Cl)cc2Cl)n1,Leishmania infantum,parasite growth,mouse Macrophage,"intracellular, amastigote",EC50,> 64 µM
CN(Cc1ccc(C2(C(F)(F)F)CC2)cc1)Cc1cccc2ccccc12,Trichophyton mentagrophytes,"microbial growth, disc diffusion",ATCC18748,"0.004 µg/mL, 72 h",inhibition zone,22.5 mm
Cc1cc(C)c(C#N)c(OCC(=O)c2ccccc2)n1,Trypanosoma brucei,"parasite growth, resazurin",RHODESIENSE,,EC50,53.6 µM
O=C(O)c1ccc(O)cc1,Helicobacter pylori,"microbial growth, broth dilution",,0.48 µg/mL,inhibition,100%
CCOCc1ccc(C2OC[C@@]3(C)[C@@H]4CC[C@]5(C)[C@H](CC=C6[C@@H]7CC(C)(C)CC[C@]7(C(=O)O)CC[C@]65C)[C@@]4(C)CC[C@@H]3O2)o1 (stereo partly drawn),Leishmania mexicana,"parasite growth, resazurin",,"50 µM, amastigote",inhibition,97.6%
CN(Cc1ccc(C(C)(C)C)cc1)Cc1cccc2ccccc12,Trichophyton mentagrophytes,"microbial growth, disc diffusion",ATCC18748,"0.128 µg/mL, 72 h",inhibition zone,≥ 55 mm
COc1ccc(-c2cc(=O)c3c(O)cc(O[C@@H]4O[C@H](CO)[C@@H](O)[C@H](O)[C@H]4O)cc3o2)cc1O,Helicobacter pylori,"microbial growth, broth dilution",,31.25 µg/mL,inhibition,100%
Cc1cc(C)c(C#N)c(SCC(=O)N2CCOCC2)n1,Trypanosoma brucei,"parasite growth, resazurin",,,EC50,> 64 µM
O=c1cc(-c2ccc(O)c(O)c2)oc2cc(O)cc(O)c12,Helicobacter pylori,"microbial growth, broth dilution",,7.81 µg/mL,inhibition,100%
CC1(C)CC[C@]2(CO)CC[C@]3(C)C(=CC[C@@H]4[C@@]5(C)CC[C@@H]6O[C@H]([C@H](O)[C@@H](O)[C@@H](O)CO)OC[C@@]6(C)[C@@H]5CC[C@]43C)[C@@H]2C1,Leishmania mexicana,"parasite growth, resazurin",,"50 µM, amastigote",inhibition,100%
Cc1cc(C)c(C#N)c(SCC(=O)c2ccc(F)cc2F)n1,Trypanosoma brucei,"parasite growth, resazurin",,,EC50,> 64 µM
CC1(C)CC[C@]2(NC(=O)NCCN)CC[C@]3(C)C(=CC[C@@H]4[C@@]5(C)CC[C@@H]6OC(C)(C)OC[C@@]6(C)[C@@H]5CC[C@]43C)[C@@H]2C1,Leishmania mexicana,"parasite growth, resazurin",,"50 µM, amastigote",inhibition,95.3%
COc1cccc(C(=O)COc2nc(C)cc(C)c2C#N)c1,Trypanosoma brucei,"parasite growth, resazurin",RHODESIENSE,,EC50,39 µM
O=c1cc(-c2ccc(O)cc2)oc2cc(O)cc(O)c12,Helicobacter pylori,"microbial growth, broth dilution",,0.48 µg/mL,inhibition,51.1%
